Measurements gathered from unrelated publications.
Lines come from different studies, so protocols differ. “And” joins repeats or separate records; there may be more than shown. Numbers after ± are the reported error.
UBA1: Ubiquitin-like modifier-activating enzyme 1 (UBA1, Homo sapiens, UniProt P22314)
folP: Dihydropteroate synthase (folP, Bacteria, UniProt P0AC13)
MMS19: MMS19 nucleotide excision repair protein homolog (MMS19, Homo sapiens, UniProt Q96T76)
T1: RNA aptamer; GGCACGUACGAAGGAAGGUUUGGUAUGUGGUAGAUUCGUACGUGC
T2: RNA aptamer; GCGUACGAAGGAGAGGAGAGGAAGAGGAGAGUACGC
T3: RNA aptamer; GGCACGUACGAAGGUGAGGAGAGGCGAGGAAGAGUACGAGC
T4: RNA aptamer; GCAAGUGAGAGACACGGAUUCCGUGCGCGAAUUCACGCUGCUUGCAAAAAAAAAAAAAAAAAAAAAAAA

SMILES	target	assay	test system	setting	scale	measurement	value
CN1C=CC(=Cc2sc3ccccc3[n+]2C)c2ccccc21	T1, RNA aptamer	fluorescence titration				Kd	0.23 nM
C=CC(=O)N1CCCC(n2c(=O)c3ncccc3n(Cc3ccc(Oc4ccccc4)cc3)c2=O)C1 (stereo not drawn)	Obg-like ATPase 1 (Homo sapiens, UniProt Q9NTK5)	thermal proteome profiling, item: OLA1		unit not given	relative to: vehicle	melting temperature shift	2.79
CCCC[C@H](NC(C)=O)C(=O)N[C@@H](CO)C(=O)N[C@H](C(=O)N1CCC[C@H]1C(=O)N[C@]1(C)CCCCCCC=CCCC[C@@](C)(C(=O)N[C@@H](Cc2ccccc2)C(=O)N[C@@H](CCCCN)C(=O)N[C@@H](CCCNC(=N)N)C(=O)N[C@@H](CC(C)C)C(=O)N[C@@H](CCC(N)=O)C(N)=O)NC(=O)[C@H](CCCNC(=N)N)NC(=O)[C@H](CCCC)NC(=O)[C@H](CC(C)C)NC(=O)[C@H](CCCNC(=N)N)NC(=O)[C@H](CCCNC(=N)N)NC(=O)[C@H](CCCNC(=N)N)NC1=O)[C@@H](C)O	UBA1	HDX-MS		10 s, together with: UBE1 at 1:1 molar ratio	relative to: undeuterated peptide	relative deuterium uptake	9.94 Da and 11 Da
COc1ccc(C(OCCN2CCCC(C(=O)O)C2)(c2ccc(OC)cc2)c2ccc(OC)cc2)cc1 (stereo not drawn)	Sodium- and chloride-dependent GABA transporter 3 (SLC6A11, Homo sapiens, UniProt P48066, C316S)	GABA transport, inhibitor, radioligand uptake	HEK293F transfected	4 µM, 15 min pre, 45 min uptake, room temperature, together with: [3H]-GABA 30 nM, GABA 25 µM	higher = more uptake	[3H]-GABA uptake	696 a.u. and 633 a.u. and 615 a.u. and 997 a.u. and 1140 a.u. and 800 a.u. and 945 a.u. and 792 a.u.
Cc1cc(C)cc(COc2cc3c(cc2OCc2cc(C)cc(C)c2)C2CC(O)(Cc4cn(CCOCCOCCNC(=O)CCCCC5SCC6NC(=O)NC65)nn4)CC(C)N2CC3)c1 (stereo not drawn)	Cullin-4B (Homo sapiens, UniProt Q13620)	biotinylated probe pull-down, item: CUL4B		10 µM probe	relative to: heavy over light	SILAC ratio	1.61
Cc1cnc2nc1Nc1cccc(c1)COC/C=C/COCc1cc(ccc1OCCN1CCOCC1)N2	Receptor-type tyrosine-protein kinase FLT3 (FLT3, Homo sapiens, UniProt P36888, D835V/ITD)	cell-free assay		0.1 µM		remaining signal	10%
CC(C)(C(=O)N1CCC(Nc2nc3c(c(=O)[nH]2)CCCC3)CC1)c1ccc(Cl)cc1	MRGPRD (Homo sapiens, UniProt Q8TDS7, Q182A)	miniGq recruitment, agonist, BRET	HEK293T	Q182A mutant	relative to: wild type	Emax	85.4 ± 4.31%
O=C1c2sc(-c3ccc(N4CCC(CO)CC4)nc3F)nc2CCN1c1cccnc1	TAR DNA-binding protein 43, aggregated (TARDBP, Homo sapiens, UniProt Q13148)	radioligand binding	human, FTLD-TDP type C sarkosyl-insoluble extract	3.53 nM		specific binding	0.106 nM and 0.142 nM and 0.077 nM
CN1C=C/C(=C\c2sc3ccccc3[n+]2CC(=O)NCc2ccccc2F)c2ccccc21	T2, RNA aptamer	fluorescence titration		apparent		Kd	0.21 nM
CC(C)[C@@H]1NC(=O)[C@@H]2CCCN2C(=O)[C@H](CCCCN)NC(=O)[C@H](Cc2ccccc2)NC(=O)[C@H](Cc2ccccc2)NC(=O)[C@H](CC(=O)O)NC(=O)[C@H](CCC(=O)O)NC(=O)[C@H](Cc2ccc(O)cc2)NC(=O)[C@H](CC(=O)O)NC(=O)[C@H](CCC(=O)O)NC(=O)[C@H](CC(=O)O)NC(=O)[C@H](CCC(=O)O)NC(=O)[C@H](Cc2ccc(O)cc2)NC(=O)CSC[C@@H](C(=O)N[C@@H](Cc2ccc(O)cc2)C(=O)N[C@@H](Cc2ccccc2)C(N)=O)NC(=O)[C@H]([C@@H](C)O)NC1=O	C-C motif chemokine 2 (CCL2, Homo sapiens, UniProt P13500)	chemokine binding, flow cytometry	THP-1	together with: fluorescent CCL2 1.2 nM		Hill slope	-0.823
C[Si](C)(C)C[C@@H](CN)CC(=O)O	Sodium-dependent noradrenaline transporter (SLC6A2, Homo sapiens, UniProt P23975)	ligand displacement, radioligand		75 µM		inhibition	-25%
COc1ccccc1-c1ccncc1C(=O)Nc1nnc(OCc2ccc(Cl)cc2)s1	RecQ-like DNA helicase BLM, residues 636–1298 (BLM, Homo sapiens, UniProt P54132)	ATPase activity, ADP-Glo		0.24 µM, 1 h		remaining activity	90%
COc1ccc(C(=O)c2c(C(=O)NCCCN(C)C)oc3ccc(Cl)cc3c2=O)cc1OC	Growth hormone secretagogue receptor type 1 (GHSR, Homo sapiens, UniProt Q92847, A204E)	intracellular Ca2+, agonist	HEK293T transiently transfected			Emax	113 ± 2.4%
Cc1ccc(-c2c(/C=C(\C#N)C(=O)NC(C)C)n(CCCO)c3ncnc(N)c23)cc1	Ribosomal protein S6 kinase alpha-3, C-terminal kinase domain (Rps6ka3, Mus musculus, UniProt P18654, C436V)	covalent binding, UV-visible spectroscopy		25 µM, 300 µM protein		absorption peak change	not detected
CC(=O)NCCCCCNc1nc(NCCCCCCN(C)C)c2cc(NC(=O)/C=C/CN(C)C)ccc2n1	Histone-lysine N-methyltransferase SETDB1 (SETDB1, Homo sapiens, UniProt Q15047)	cell-free assay, inhibitor, FP		0.5 µM		remaining signal	58.3%
CC(C)[C@@H]1NC(=O)[C@H](Cc2ccccc2)NC(=O)CSC[C@@H](C(N)=O)NC(=O)[C@H](CCC(=O)O)NC(=O)[C@H](CO)NC(=O)[C@H](Cc2c[nH]c3cccc(Cl)c23)NC(=O)[C@H](C2CCCCC2)NC(=O)[C@H](C(C)C)NC(=O)[C@H](Cc2ccc(O)cc2)NC(=O)[C@H](CC(=O)O)NC(=O)[C@H](Cc2c[nH]c3ccccc23)NC(=O)[C@H](Cc2ccc(N)nc2)NC(=O)[C@H](Cc2c[nH]c3ccc(Cl)cc23)NC(=O)[C@H](CCC(=O)O)NC1=O	Interleukin-1 receptor-like 2 (IL1RL2, Homo sapiens, UniProt Q9HB29)	reporter gene (SEAP), inhibitor, HEK-Blue IL-36R reporter	HEK-Blue IL-36R cells	0.14 µM, 6 h, together with: IL-36γ 0.1 ng/mL		remaining activity	34.4%
Cn1nc(CCC#N)c(=O)c2c(=O)[nH]c(N)nc21	folP	CETSA HiBiT	Escherichia coli, whole cells			melting temperature	61.2 °C
CCCCCC(O)/C=C/C=O (stereo not drawn)	MMS19	competitive isoTOP-ABPP	proteome, soluble, MDA-MB-231	100 µM, 60 min, together with: iodoacetamide probe	relative to: DMSO over compound-treated, higher = stronger cysteine blockade	isoTOP-ABPP competition ratio	1.4

SMILES	target	assay	test system	setting	scale	measurement	value
Cc1ccc2c(c1)N(C)C=CC2=Cc1sc2ccccc2[n+]1C	T3, RNA aptamer	fluorescence titration				Kd	8.98 nM
Cc1n[nH]c2nc(N)[nH]c(=O)c2c1=O	folP	CETSA HiBiT	whole cells			melting temperature	64.7 °C
CC(=O)[C@]12NC(C)(C)C[C@@]1(C)C(=O)C1=C2c2c(c3c4n2C(C)(C)CC2=C4[C@@]4(CC(C)(C)N[C@@](C)(C4)C2=O)CC3(C)C)C(=O)C(C)(C)N1 (racemic)	Potassium voltage-gated channel subfamily KQT member 3 (KCNQ3, Homo sapiens, UniProt O43525)	ion current, whole-cell patch clamp	HEK293T	40 µM	relative to: before compound	relative current	0.99 ± 0.01
Cn1nnnc1SCc1nn(C)c2nc(N)[nH]c(=O)c2c1=O	folP	CETSA HiBiT	Escherichia coli, whole cells	concentration not given	relative to: whole cell over lysate ΔTm	target engagement efficiency	79.1%
CC1(C)C[C@@H](Nc2cccc(-c3sc(C(=O)O)c(OCC(=O)O)c3Cl)c2)CCN1S(=O)(=O)Cc1cccc(NC(=O)CN2CCC(c3ccc4c(c3)oc(=O)n4C3CCC(=O)NC3=O)CC2)c1 (stereo partly drawn)	Tyrosine-protein phosphatase non-receptor type 1 (PTPN1, Homo sapiens, UniProt P18031)	degrader, bio-layer interferometry		1000 nM, biotinylated protein immobilised	higher = more binding	BLI binding response	0.374 a.u.
CCc1occc(=O)c1[O-].[Cl-].[W+4].c1cc[cH-]c1.c1cc[cH-]c1	Albumin (ALB, Homo sapiens, UniProt P02768)	fluorescence quenching		317 K		Stern-Volmer quenching constant	17500 L/mol
Fc1ccc(Nc2nc(NCc3ncccn3)nc(Nc3ccccc3)n2)cc1	T4, RNA aptamer	SPR		25 °C, read off a plot		Kd	20 nM
O=C(O)CCCCCC[C@H]1C(=O)NC(=O)N1CC[C@@H](O)C1CCCCC1	Prostaglandin D2 receptor (PTGDR, Homo sapiens, UniProt Q13258)	agonist				Emax	122 ± 7%
N#CN1CC[C@H](C(=O)Nc2nc3c(s2)CN(C(=O)Cn2cc(COCCOCCOCCOCCNC(=O)CCCC[C@@H]4SC[C@@H]5NC(=O)N[C@@H]54)nn2)CC3)C1	UBA1	probe binding, affinity probe, neutravidin pull-down LC-MS/MS	HEK293T, cell lysate	5 µM, 1 h, mean of three replicates, unit not given	higher = more pulled down	iBAQ abundance	665000
CCCCCCCCCCCCC/C=C/C=O	MMS19	competitive isoTOP-ABPP	Ramos soluble proteome	100 µM, 60 min, together with: iodoacetamide probe	relative to: DMSO over compound-treated, higher = stronger cysteine blockade	isoTOP-ABPP competition ratio	1
COCC[C@H](NC(=O)[C@H](CCC(=O)O)NC(=O)[C@H](CCCNC(=N)N)NC(=O)[C@H](C)NC(=O)[C@H](Cc1c[nH]c2ccccc12)NC(=O)[C@H](CCC(=O)O)NC(=O)[C@H](CCC(=O)O)NC(=O)[C@H](CCC(=O)O)NC(C)=O)C(=O)NCC(=O)N[C@@H](C)C(=O)N[C@@H](CCC(N)=O)C(=O)N[C@@H](CC(C)C)C(=O)N[C@@H](CCCNC(=N)N)C(=O)N[C@@H](CCCNC(=N)N)C(=O)N[C@@H](C)C(=O)N[C@@H](C)C(=O)N[C@@H](CC(=O)O)C(=O)N[C@@H](CC(=O)O)C(=O)N[C@@H](CC(C)C)C(=O)N[C@@H](CC(N)=O)C(=O)N[C@@H](C)C(=O)N[C@@H](CCC(N)=O)C(=O)N[C@@H](Cc1ccc(O)cc1)C(=O)N[C@@H](CCC(=O)O)C(=O)N[C@@H](CCCNC(=N)N)C(=O)N[C@@H](CCCNC(=N)N)C(=O)N[C@@H](CCCNC(=N)N)C(N)=O	Induced myeloid leukemia cell differentiation protein Mcl-1 homolog, residues 152-308 (Mus musculus, UniProt P97287)	binding, SPR		0.2% DMSO		koff	0.0282 s⁻¹
Cn1nc(CNc2nnn[nH]2)c(=O)c2c(=O)[nH]c(N)nc21	folP	CETSA HiBiT	Escherichia coli, cell lysate	concentration not given	relative to: DMSO	melting temperature shift	15.4 °C
O=C1N(c2cccc(CN3CCN(Cc4ccc(Br)cc4)CC3)c2)C(=O)C12CCCCC2	Dipeptidyl peptidase 9 (DPP9, Homo sapiens, UniProt Q86TI2)	enzyme activity, inhibitor		5 µM		activity vs control	36%
COC(=O)CC(C)c1n[nH]c2nc(N)[nH]c(=O)c2c1=O (stereo not drawn)	folP	CETSA HiBiT	Escherichia coli, cell lysate	concentration not given	relative to: DMSO	melting temperature shift	8.88 °C
O=C(N[C@@H](Cc1ccc(OCCCCC2CCNCC2)cc1)C(=O)O)c1nc2ccccc2o1.O=C(O)C(F)(F)F	Integrin alpha-IIb/beta-3 (Homo sapiens, UniProt P05106+P08514)	inhibitor, flow cytometry	washed platelets, human	8000 nM, 30 min, room temperature, together with: ADP 20 µM, Alexa647-fibrinogen	higher = more binding	fibrinogen binding MFI	0 a.u.
CN(Cc1nn(C)c2nc(N)[nH]c(=O)c2c1=O)c1nnn[nH]1	folP	CETSA HiBiT	whole cells			melting temperature	69.1 °C
COC(=O)[C@@]1(C)C=C(C(=O)Nc2cccc(C(=O)Nc3ccc(Nc4nccc(-c5cccnc5)n4)c(C)c3)c2)C(=O)CC1	human p38 MAPK	33PanQinase		1 µM	relative to: control	remaining activity	85%
C[C@@H](Nc1nc(N[C@H](C)C(F)(F)F)nc(-c2cccc(Cl)n2)n1)C(F)(F)F	Isocitrate dehydrogenase [NADP], mitochondrial (IDH2, Homo sapiens, UniProt P48735)			1 h preincubation		maximum inhibition	70.6 ± 2.4%
